Results gathered from unrelated publications.
Parts stem from different laboratories: compare values within a part only.

Study 1 — method: RNA Bind-n-Seq; molecule type: RNA; sample: in vitro; tested at: 365 nM; reference: no-protein control; direction: higher = stronger binding
Target: RNA binding protein fox-1 homolog 2, RRM domain, GST-SBP tag (RBFOX2, Homo sapiens, UniProt O43251-10, residues 100-194)
Notes: natural RNA segment, single round, ends assumed
All sequences stand within: GGGAGUUCUACAGUCCGACGAUC … UGGAAUUCUCGGGUGCCAA
Target sequence (chain): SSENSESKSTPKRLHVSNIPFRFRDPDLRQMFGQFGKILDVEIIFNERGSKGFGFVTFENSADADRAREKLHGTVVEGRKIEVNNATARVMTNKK
Strand | RBNS enrichment (R)
UUAUGGAGGAAGGAAUGGAUCUUUGGUCAGAUGAGACUAACAGAGGGACUCACUGUCAGAGUUAGCGUGGAUUGCUGCUGCCGGGGCACUACCUCCUGGCUUCUCUCCCU | 0.711
CCUAAGUCACAGGAUGAUUAUUAGGGAAAUGUCAUUGACACCUGAAAAUUACCUAUCCUGUAAAAAGACUGGUGAAAUUCAACAUGUUUUAAAUAAUUUAAUUGCAUUAU | 0.316
GAAAUAGUCUUUGCUCAUUCUUGGGAUGCCUGAACGCUAGCUAAGCAUCUGAUAAACGCUGUGGAGACUUAGCCCAACACAAGCUCCAGUGUCUGUAGGAGUCGGCCUCA | 0.548
UUAAUAAGGAAUUUUAAUCUAGAAUUUUGAUCUUUGUAAAAAAAGGGGAAAAAGGGUAGUUUGUUUCAUACUUUUGGAAUUUUUUUUCAGUGAAAAAUAACUGAAGUUCA | 0.897
UGCCCCUGAAGCCUGGAUCAUUCGUCUUCUCCUUUACCCACCCCUAAACCCCUGAUGCUGGUUAGGAACUUCUCACCCCAACACGUGUCUUAAGUAAGGCAGGGCAAGGC | 0.404
GAAUUGAUUUUUUGAGUUUUGUUUGUAAGAUGAUCACAGUCAUGUUACACUGAUCUAAAGGACAUAUAUAUAACCCUUUAAAAAAAAAAUCACUGCCUCAUUCUUAUUUC | 0.438
CGUUCUCCUGCUUGUACUAAGCCAGGAGGCUUUAAGCUCCAGCUUUAAGGGUUGUGAGCCCCUUGGGGGUUCAGGGAACUGCUUGCCCAGGGUGCAGUGUGAGUGUGAUG | 0.652
CUGUGAGAGCGGGAUGGGGACGACAUGAAUCACAGCUUUGCUGUGAGCUUUCUCUCGUGCAGUUUCAUCAGAGGUUUGGGAGGAGGGCAAGUGGCCGCUAGAGAAGAAUA | 0.546

Study 2 — method: EMSA with sequencing; molecule type: double-stranded DNA, one strand shown; sample: in vitro; tested at: 10 and 20 nM; reference: negative control set to 0; direction: higher = stronger binding
Target: Hepatocyte nuclear factor 3-alpha (Foxa1, Mus musculus, UniProt P35582, residues 1-468, full length assumed)
Notes: whole designed probe, mean of two concentrations, ends assumed
All sequences stand within: GTGAGCGGTGCCCATTGATGGGGAAC … TTTCACTGGGATCGTGGGGAC
Construct (chain): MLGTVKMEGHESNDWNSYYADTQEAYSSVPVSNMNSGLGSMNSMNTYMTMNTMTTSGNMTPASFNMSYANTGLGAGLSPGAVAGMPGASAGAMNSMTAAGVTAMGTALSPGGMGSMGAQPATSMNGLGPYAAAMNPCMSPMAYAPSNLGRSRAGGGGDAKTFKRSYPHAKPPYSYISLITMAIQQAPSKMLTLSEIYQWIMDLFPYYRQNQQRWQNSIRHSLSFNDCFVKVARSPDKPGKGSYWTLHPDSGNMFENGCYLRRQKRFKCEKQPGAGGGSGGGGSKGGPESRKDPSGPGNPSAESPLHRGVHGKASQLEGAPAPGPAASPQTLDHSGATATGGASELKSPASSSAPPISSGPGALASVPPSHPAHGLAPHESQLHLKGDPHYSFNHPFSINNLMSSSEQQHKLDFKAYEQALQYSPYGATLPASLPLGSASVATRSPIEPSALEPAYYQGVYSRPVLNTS
Strand | normalised bound fraction
AGCAGAACCAATATAATCATGATTGCATACACCCATACGTTAATATGTTGGTAAATTGGATTTGTTATATAAAGAAATTGCAATGAAGTGCTAAGTAAACAAATATCTGTTTACATTATAATCTCTATGGCATGTTATATTTTAATTTCTATCTAGAAATGCATTGTGAAACCTAATAAAAAATTTGAAGCTT | 0.561 ratio
TCTTCTTTAGGACTCCTCCCACCCCTGCCTCTTCGGGCTTTGTTTTCTATGAGAGTGGAGACTACCAACTCTTCATATCTTCCCAGAGTCCCTGTTTACATATAACATTTTCGTTTTTTCTTTTTTTAAATAAAAGTTTATTCAGACAGTATTAGGCCAACTGATTTTACGAATTGTAATTATACGAAGCCCA | 0.231 ratio
CAATGAAGAAATTGAGAAATTGATTACAGATACAATGAAGAAATTGAGAAATTAATTACAGATCCTTATGACCTATTTCACTTATCTGTTTCCTTATTTACTTTGCCATACATTCCTGTAGGCCCATAGAGAAATCCAGTACTGTAAAGTAAATGGAAGCTTGCATTCAGAATGGTTCATCATTAGCAGTTTC | 0.382 ratio
AATAGCGCTCTGGAGAGAAGGTCCGTTCCATGCCCAGGTAGGGAGGAGGGGGAAAAATGATACTGGCGGGCAGGGAGAGGGGAAGGCAAGAAAGCAAACAGGCGTGGAAGAGCTGTGAGCTCAAATCTGACTTCTTTTGTCTGTAGACGGGGGAATCCAGGGTGACTGGGTATAATCTGTATTATCTAGGTCC | 0.0546 ratio
ATAATCTGAGGTGGCGACTGGCCAGATAGCCTGCCCCTACTCACTCTGGCTATAAAATAAGCCTACAGTATCCACAAGGGGAAATACTAACAGTGTAAACAAGCACATCAAGGTGCAGTCAAAGAAGCCAGGTCCCCACTGATGAGATGAAGAAAATAACCACCTAAGTCTCAGGTCCCTGTATCTGCCTAAT | 0.319 ratio

Study 3 — method: protein-binding microarray; molecule type: double-stranded DNA, one strand shown; sample: in vitro; tested at: 2540 nM top; notes: 60-bp whole probe; with: salmon DNA 0.4 mg/ml; reference: random background probes; direction: higher = stronger binding; all sequences stand within: GCCTAGCAC … GTCTTGATTCGCTTGACGCTGCTG
Target: Interferon regulatory factor 3, full length, phosphomimetic (IRF3, Homo sapiens, UniProt Q14653, residues 1-427, S386D/S396D/S398D/S402D/T404D/S405D)
Residues (chain): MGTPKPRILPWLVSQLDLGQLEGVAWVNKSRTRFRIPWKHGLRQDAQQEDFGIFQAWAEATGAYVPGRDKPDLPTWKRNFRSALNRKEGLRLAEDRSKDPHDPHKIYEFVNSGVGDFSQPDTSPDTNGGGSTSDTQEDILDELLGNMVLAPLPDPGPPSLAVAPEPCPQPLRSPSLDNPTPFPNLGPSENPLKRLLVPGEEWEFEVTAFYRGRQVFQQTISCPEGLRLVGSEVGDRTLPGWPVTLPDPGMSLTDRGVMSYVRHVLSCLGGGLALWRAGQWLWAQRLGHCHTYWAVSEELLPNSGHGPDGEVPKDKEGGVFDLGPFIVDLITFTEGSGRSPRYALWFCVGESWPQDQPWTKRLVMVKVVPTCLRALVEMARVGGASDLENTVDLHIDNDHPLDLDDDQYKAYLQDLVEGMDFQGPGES
Strand | fitted relative affinity
ATCCATCTCAAGTAGCCTAGCGTGCTA | 0.992 z-score
TTAGGTTTCCTTTCCCTTGAGTGCTAG | 10.5 z-score
TTAGAACTGGGGTATCGAATAGTGCTA | -0.592 z-score
TTAGGACTGGGACTGGGTGAGTGCTAG | -0.805 z-score
GACGGTATCGACACTGGGGATGTGCTA | 0.522 z-score
TATCAGCAAACTTTTCTTGAGTGCTAG | 0.195 z-score
TTAGGACTGGGGTATCGGTTCGTGCTA | 0.842 z-score
GACGGTTTCGTTCTCGGGACGTGCTAG | 7.97 z-score
TTAGGTTTCGGGACTGGGTTGGTGCTA | 4.4 z-score
TTCCCTCCCTAATTCTGATTGTGCTAG | 0.891 z-score
ATCCTTGTCCCTCCGGGAGCGTGCTAG | 0.342 z-score
GACGATATTAGTCTCGAGACGTGCTAG | 0.35 z-score
TCACTTATTAAGATTGTGACTGTGCTA | 0.298 z-score
TGGGCTGTGGGTTTGAGTCTGTGCTAG | -1.63 z-score
GACGGTTTCGGGACTGGGGAAGTGCTA | 4.86 z-score
GACGTTATCGGGTATCGGGACGTGCTA | 0.415 z-score
TTAGGACTGCTTTGCCTTTAGTGCTAG | -0.44 z-score
GTCAGTTTTGAGCTCTGTCTGTGCTAG | 0.711 z-score
TTAGGACTGCTTCTCCTTGAGTGCTAG | -0.167 z-score

Study 4 — method: RNA Bind-n-Seq; molecule type: RNA; sample: in vitro; tested at: not given; notes: RNA with constant flanks, ends assumed; reference: input RNA pool; direction: higher = stronger binding
Target: RING finger protein unkempt homolog, zinc fingers 1-6, GST-SBP tag (UNK, Homo sapiens, UniProt Q9C0B0, residues 30-357)
UniProt Q9C0B0, sequence (30-357, looked up): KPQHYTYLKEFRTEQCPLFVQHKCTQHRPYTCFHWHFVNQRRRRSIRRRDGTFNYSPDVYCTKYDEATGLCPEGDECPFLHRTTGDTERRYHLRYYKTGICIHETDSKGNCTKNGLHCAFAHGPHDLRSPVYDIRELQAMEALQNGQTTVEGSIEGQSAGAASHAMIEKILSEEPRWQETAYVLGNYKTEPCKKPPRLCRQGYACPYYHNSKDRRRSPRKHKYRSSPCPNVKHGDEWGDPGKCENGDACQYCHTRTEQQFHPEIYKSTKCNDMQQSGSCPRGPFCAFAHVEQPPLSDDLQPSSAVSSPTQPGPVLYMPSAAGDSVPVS
All sequences stand within: GGGAGUUCUACAGUCCGACGAUC … CAACAGAGGAUUGAGCAUCA
Strand | bound/input enrichment [ratio]
CAUGUGACUGUGAAGAAGCUGUUUGUUGGUGGAAUUAAGGAAGAUACUGAGGAACACCACCUCCGAGAUUACUUUGAAGAGUAUGGAAAAAUUGAUACUAUUGAAAUAAUUACCGAUAGG | 0.228
UGCAUUCGCAAAGCAAAGAUUUCCGCUGUUGCUUUCCGGAAAGCCUUUUGCCACCACAAGCCCGCCGAACUUGAUGCCACGGGUGUGAAUGCUGACAUCACUAUCACAGACAUCAUAAGU | 0.162
CCCGCGCCGCCUCCUCCCACCCUGAGCAGAGCCACCGAGGAUGAUAAACACCCAGGACAGCCGUAUUUUGCCGUUGAGUAAGUGUCCCCAGCUCCAGUGCUGCAGGCACAUUGUUCCAGG | 0.184
GCAACCAAAGAUGUACAUAAAGGAGAGUCUGGAAGCCAGGAAGGGGGGGUAAAUAGUUUCCGUACCUUAAUUGGCCUCCCUUCAACCUCAGCUGUUACUUCACAGCCUAAAAGCUUUGAA | 0.181
UCAGUUAAGUUGUCAGAAAACAUGAAGGCAUCUUCCUUUAAAAAGCUACAGAAGUUCUAUACCGACCCAUACAAGCUGCUGCCGCUGCAGAGGUUUCUGCCUCGUCCUCCUGGUGAGAAA | 0.2
GUCUUCACGUGCUUCCGUUGUGCAGCUGCCUGGUGUCGGCCGGAGCAGGGCGCAGUGACCGCUUUUCAUCAUGAAUCGGAAGAAGGUGGAUAACCGAAUUCGAAUUCUCAUUGAGAAUGG | 0.153
CCUUCUGCAUAAGGUUUUUUUGUAGUGUAAUGUCUUAAUCAUAGUCUACCAUCAAAUAUUUCCGGAGUAUCUUUAAUGUUUAGAUAGUAUAUUAGCAGCAUGCAAUAAUUACAUCAUAAG | 0.639
GACAUCCUCUAUGCCCGGCAGAAGGUUGUUGUCACGGCAAAAGCCUUUGGCCUACAAGCCACCGAUCUUGUGUACAUUGACUUCCGAGAUGAAGACGGACUUCUCAGACAGUCAAGGGAA | 0.239

Some of these lines once more (study 4):
Strand | bound/input enrichment [ratio]
CCCGCGCCGCCUCCUCCCACCCUGAGCAGAGCCACCGAGGAUGAUAAACACCCAGGACAGCCGUAUUUUGCCGUUGAGUAAGUGUCCCCAGCUCCAGUGCUGCAGGCACAUUGUUCCAGG | 0.184
GCAACCAAAGAUGUACAUAAAGGAGAGUCUGGAAGCCAGGAAGGGGGGGUAAAUAGUUUCCGUACCUUAAUUGGCCUCCCUUCAACCUCAGCUGUUACUUCACAGCCUAAAAGCUUUGAA | 0.181
UCAGUUAAGUUGUCAGAAAACAUGAAGGCAUCUUCCUUUAAAAAGCUACAGAAGUUCUAUACCGACCCAUACAAGCUGCUGCCGCUGCAGAGGUUUCUGCCUCGUCCUCCUGGUGAGAAA | 0.2
GUCUUCACGUGCUUCCGUUGUGCAGCUGCCUGGUGUCGGCCGGAGCAGGGCGCAGUGACCGCUUUUCAUCAUGAAUCGGAAGAAGGUGGAUAACCGAAUUCGAAUUCUCAUUGAGAAUGG | 0.153
CCUUCUGCAUAAGGUUUUUUUGUAGUGUAAUGUCUUAAUCAUAGUCUACCAUCAAAUAUUUCCGGAGUAUCUUUAAUGUUUAGAUAGUAUAUUAGCAGCAUGCAAUAAUUACAUCAUAAG | 0.639
GACAUCCUCUAUGCCCGGCAGAAGGUUGUUGUCACGGCAAAAGCCUUUGGCCUACAAGCCACCGAUCUUGUGUACAUUGACUUCCGAGAUGAAGACGGACUUCUCAGACAGUCAAGGGAA | 0.239
